Results collected from several papers.
Numbered parts are unrelated; each lists some results of a single study. Changes are numbered by the printed parent chain.

Sample 1 — technique: DHFR PCA, deep sequencing; sample: yeast; added: (+)-ABA 58 µM; baseline: wild-type fitted maximum; direction: higher = stronger binding
Target: ABI1, truncated, D143A, DHFR fusion (Arabidopsis thaliana)
Notes: methotrexate growth selection, single substitutions
Starting sequence: PYL1, truncated, DHFR fusion (Arabidopsis thaliana); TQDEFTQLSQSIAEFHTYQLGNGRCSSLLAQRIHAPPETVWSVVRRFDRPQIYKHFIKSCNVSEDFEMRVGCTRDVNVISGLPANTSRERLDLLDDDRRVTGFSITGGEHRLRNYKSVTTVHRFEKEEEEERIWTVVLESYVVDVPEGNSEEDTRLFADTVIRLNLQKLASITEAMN; partner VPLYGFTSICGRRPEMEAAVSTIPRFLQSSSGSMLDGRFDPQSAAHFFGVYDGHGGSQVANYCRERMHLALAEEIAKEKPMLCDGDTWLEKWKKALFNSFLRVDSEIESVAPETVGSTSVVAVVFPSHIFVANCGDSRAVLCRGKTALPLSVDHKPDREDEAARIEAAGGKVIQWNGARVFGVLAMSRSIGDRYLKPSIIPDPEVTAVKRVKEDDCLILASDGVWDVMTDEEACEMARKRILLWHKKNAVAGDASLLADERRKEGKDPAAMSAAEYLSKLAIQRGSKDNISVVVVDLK
Under “relative binding score”, `F66C` is recorded as 78.2%.
Under “relative binding score”, `L28K` is recorded as 57%.
`G102D`: “relative binding score” -17.6%.
For `G71N`, “relative binding score” read 54.4%.
Under “relative binding score”, `R99D` is recorded as -2.03%.
Under “relative binding score”, `V40K` is recorded as -9.86%.
`C72F`: “relative binding score” 61.4%.
`A30L` — result for “relative binding score”: 88.2%.
`N85D`: “relative binding score” 82.3%.
`P146F`: “relative binding score” 6.27%.
`G21A` — result for “relative binding score”: 89.2%.
`D65V`: “relative binding score” 69.7%.
`T120E` — result for “relative binding score”: 5.3%.
`R163Y` — result for “relative binding score”: 18.5%.
`L156W` — result for “relative binding score”: 79.6%.

Sample 2 — target: CCNB3, cyclin fold, Cln2 fusion (human); technique: yeast growth competition, sequencing; sample: yeast; notes: weak parent motif; baseline: not given; direction: higher = stronger binding
Starting sequence: USP37 docking peptide (human); PSAKRSLGFLPQP
`PSAKRSAGFLPQP [L7A]` — result for “normalised enrichment score”: 0.104.
`PSAKRSLAFLPQP [G8A]` — result for “normalised enrichment score”: 0.0911.
Under “normalised enrichment score”, `PSAKRSLGFLPQA [P13A]` is recorded as 0.179.
For `ASAKRSLGFLPQP [P1A]`, “normalised enrichment score” read 0.101.
Under “normalised enrichment score”, `PSAKRSLGFAPQP [L10A]` is recorded as 0.0455.
Under “normalised enrichment score”, `PSAKRSLGFLAQP [P11A]` is recorded as -0.21.

Sample 3 — technique: protein binding microarray; form: double-stranded DNA, one strand shown; sample: in vitro; concentration: not given; baseline: not given; direction: higher = stronger binding
Target: Histone acetyltransferase KAT6A, winged helix 2, GST fusion (KAT6A, Homo sapiens, UniProt Q92794, residues 85-181)
Notes: 8-mer, flanks averaged, mean of 2 arrays, mostly near background
Construct (chain): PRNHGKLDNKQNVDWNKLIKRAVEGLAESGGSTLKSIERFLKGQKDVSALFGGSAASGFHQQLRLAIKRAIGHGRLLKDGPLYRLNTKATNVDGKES
The E-score of `AGGCACAC` is reported as -0.0314.
For `ACTGCGGA`, the E-score was 0.00931.
`GTTTTAAA` has an E-score of 0.114.
The E-score of `CGGACATC` is reported as -0.155.
With `CGTCCACG` the E-score was 0.0343.
With `CTAGACGA` the E-score was -0.0696.
`AGCACTTA` gave an E-score of -0.0452.
`AGCAATTC` gave an E-score of 0.021.
With `CCTTCCCC` the E-score was 0.0552.
For `CGCCCAGA`, the E-score was 0.0217.
The E-score of `GCAACCTA` is reported as -0.0856.
`ATAGCCAG` gave an E-score of -0.125.
With `AGGACGAC` the E-score was -0.0982.
`GTTTTCTA` has an E-score of 0.169.
With `AGTACCTA` the E-score was -0.104.
`ATGAACGG` has an E-score of -0.136.
With `ACCCTAAA` the E-score was -0.018.
`CTGCGAAC` has an E-score of -0.00212.
`CCATGGGA` gave an E-score of -0.137.
With `TTAAGGAA` the E-score was -0.0155.
The E-score of `CCTGTTAC` is reported as -0.147.
With `CCACTCCC` the E-score was -0.151.
`ACTGTCAT` has an E-score of -0.179.
With `AGCATAAC` the E-score was -0.0319.
`AAGAGCGG` has an E-score of 0.076.

Sample 4 — technique: protein-binding microarray; form: double-stranded DNA, one strand shown; sample: in vitro; concentration: 940 nM top; notes: 60-bp whole probe; added: salmon DNA 0.4 mg/ml; baseline: random background probes; direction: higher = stronger binding; constant ends, left off below: GCCTAGCAC … GTCTTGATTCGCTTGACGCTGCTG
Target: Interferon regulatory factor 5, full length, phosphomimetic (IRF5, Homo sapiens, UniProt Q13568-2, residues 1-514, S451D/S453D/S456D/S462D)
For `TCAGGTCTGTTTCTGATACTGTGCTAG`, “fitted relative affinity” read 0.624 z-score.
`TTGGGTTTCCTTATCCTTTAGTGCTAG`: “fitted relative affinity” 1.47 z-score.
`CACGATTTCAGTATCGAGACGTGCTAG` — result for “fitted relative affinity”: 2.25 z-score.
Under “fitted relative affinity”, `TACGATATCGGGTATCGAGACGTGCTA` is recorded as 1.03 z-score.
Under “fitted relative affinity”, `TTAGGACTGGACAGTGGGTTAGTGCTA` is recorded as -0.616 z-score.
`GACGATTTCCTTATCCTGACGTGCTAG`: “fitted relative affinity” 0.67 z-score.
For `GACGATTTCGGGACTGGAGTCGTGCTA`, “fitted relative affinity” read 0.407 z-score.
For `GACGGACTGCTTATCCAGACGTGCTAG`, “fitted relative affinity” read -0.466 z-score.
`TTAGAACTGAGTTTCGACTAGTGCTAG` — result for “fitted relative affinity”: 4.42 z-score.
`TTAGGTTTCGGTTTCGGGTAGTGCTAG` — result for “fitted relative affinity”: 15.7 z-score.
`TTAGGTAGCGGGACTGGGTTAGTGCTA`: “fitted relative affinity” -0.122 z-score.
`GACGGTATCCTACTGATGACGTGCTAG` — result for “fitted relative affinity”: -0.182 z-score.
Under “fitted relative affinity”, `GGAAATTCCAAGTTCATGGGGTGCTAG` is recorded as -0.115 z-score.
`GACGGACTGGGGTTTCTGGACGTGCTA`: “fitted relative affinity” 0.0867 z-score.
`GTAGATTTCGGGACTGGATTAGTGCTA`: “fitted relative affinity” 0.374 z-score.
`TTAGAACTGGGATTTCGATTAGTGCTA`: “fitted relative affinity” 0.744 z-score.
For `CAGCTTTTATCCCTGACAGAGTGCTAG`, “fitted relative affinity” read 0.331 z-score.
Under “fitted relative affinity”, `GTAGAACTGGGGTATCGATTAGTGCTA` is recorded as 2.66 z-score.
`TTAGGACTGGGTCTCGGATAGTGCTAG` — result for “fitted relative affinity”: 0.106 z-score.
For `GACCAGGGGCCACAGCCTCAGTGCTAG`, “fitted relative affinity” read -0.872 z-score.
For `GACGGTTTCGGGACTGGGGAGGTGCTA`, “fitted relative affinity” read 7.44 z-score.
`GACTATATCGGGACTGGAGACGTGCTA` — result for “fitted relative affinity”: -0.194 z-score.
`CTTTCTTTTATGCTCTTTCTGTGCTAG`: “fitted relative affinity” 2.36 z-score.
`GACGGTATCGGGACTAGGGACGTGCTA` — result for “fitted relative affinity”: 2.84 z-score.
`TTCGGTTTCGGGTTTCGGTTAGTGCTA`: “fitted relative affinity” 11.7 z-score.

Sample 5 — technique: RNA Bind-n-Seq; form: RNA; sample: in vitro; concentration: 365 nM; baseline: no-protein control; direction: higher = stronger binding
Target: RNA binding protein fox-1 homolog 2, RRM domain, GST-SBP tag (RBFOX2, Homo sapiens, UniProt O43251-10, residues 100-194)
Notes: natural RNA segment, single round, ends assumed
Constant ends, left off below: GGGAGUUCUACAGUCCGACGAUC … UGGAAUUCUCGGGUGCCAA
Target sequence (chain): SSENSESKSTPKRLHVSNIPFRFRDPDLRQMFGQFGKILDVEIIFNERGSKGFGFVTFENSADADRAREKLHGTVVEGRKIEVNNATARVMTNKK
Under “RBNS enrichment (R)”, `AAACUUAGUCCAGGAUAUUUUCCUUUGUGUUUUAUAACUUUACAGAGGACCAAAGCAAUUCUUGUUUUAGUUUCUUUGCGAAGCCUGCUCCUCCUUCCCUUCAUAAGGAC` is recorded as 0.251.
For `ACGUCAUUUUGCAAAUUAGAACAGGACAAAUUUUAUGUUUCCGGGGCACAUAUGUUGUAUUGCAAAGCAUAUUUGGCAAGCAGUUCAUCACCAAGGCAGUAGCUAUGAUU`, “RBNS enrichment (R)” read 0.814.
For `UUGGACUGGCUUCAUUCUGAAUUUGUGCUAAAAUAAUCUUUCAUAAAGAGACCUCAGUUUAUAGCGUAACAGACUACACAAUGCACUGAUGUUUUCAUAAUGUUUAAGGG`, “RBNS enrichment (R)” read 0.465.
For `GGGAGCACGGUUCUGGGAGCUCUGCAAAAUCAGUAGCAAGUGCUGGAAAAGGCACAUGCCGAAGAUACUCAAGAGCUCCCAAGAUUUGCUUGAGGCUAGCCCAGUGAAAA`, “RBNS enrichment (R)” read 0.531.
`GAUAAACAACAAGGUGGUGUGAUCUUAAUAUAUUUGAAAAAAACUUCAUUCUCGUGAGUCAUUUAAAUGUGUACAAUGUACACACUGGUACUUAGAGUUUCUGUUUGAUU` — result for “RBNS enrichment (R)”: 0.625.
Under “RBNS enrichment (R)”, `CAACCGCCGACGGGCCAGCAAGGCCAGUCUGCCCACACUCACCAAGGACACCAAGAAGCAGGUACUGCCGCCUUGCAGCUGGCGCACAGCCAGGAGGACUCCAGCCGGUG` is recorded as 0.221.
`ACCCUAUCUAUGUGGCUUACAACAUUAGCCAGCACUGGAGGGACCGCAGGGAAGACCUGUGGCUAGGAGCAGGCUUUCAGCUGACAUGAAGAUGGCCCCCGCACAGCCUU` — result for “RBNS enrichment (R)”: 0.338.
For `UGCCUUCUUCCAGGAUCAGGGGUUAGGGUGCAAGAAGCCAUUUAGGGCAGCAAAACAAGUGACAUGAAGGGAGGGUCCCUGUGUGUGUGUGUGCUGAUGUUUCCUGGGUG`, “RBNS enrichment (R)” read 0.976.
`CAGAAGGACAUCCAAGCCUGCAAUGGCAGGUCACUAUUUACUUAAUAUUUCCACCUAUGGCAGGGGUACAGAGAACAUUAAAAGGACCCAUUCUGUAAAUCCUGAUGAUC` — result for “RBNS enrichment (R)”: 0.591.
`GUGGUCCUCAGCAGGGUUUUGACCUUGAUUGGCGGCUACUCUGGCAACCACUGCCCAUUCUUCUAAUCCCUCACAAUACGUGAUUCAGACCCUGAGCCUGGUCCACAGUG`: “RBNS enrichment (R)” 0.247.
`UGAAAAACACUAAUUCUCUUCAGUCUUCUUUAGUGAAGACUUACACUUGCAAAGUCUGUGCCGCCUAUUCUGACUCAUGCUGUCUAGGUGCCCAGUGUAUGAGAGCCACU`: “RBNS enrichment (R)” 0.323.
Under “RBNS enrichment (R)”, `AGAGUGAGGAGUCUUCUGAGCUCCCUGGCUAAGUGCAGCGUGCUAGCAGACAGGCAGGGGAUGCAAACGGCUGCCGGGCCACCUCUCCCCUCUCACAAACCAUAUAAACA` is recorded as 0.506.
